Published values collected from several papers.
Numbered parts are unrelated; each lists some results of a single study. Positions count from the first letter of the parent shown.

Sample 1 — method: RNA Bind-n-Seq; form: RNA; matrix: in vitro; concentration: 200 nM; setting: whole 134-nt RNA, ends assumed; together with: 150 mM KCl; relative to: input library; reading: higher = stronger binding
Target: Fragile X messenger ribonucleoprotein 1, C-terminal low-complexity region (Fmr1, Mus musculus, UniProt P35922)
Constant ends, left off below: GGGAGUUCUACAGUCCGACGAUC … UGGAAUUCUCGGGUGUCAAGG
Sequence	log2 enrichment
UCCUGUGCUACACAUCGUAUGUACCGAAUCAAACCCAAACCCCCCCAAAUUUUUUUAAAAAAGUAUUAUGUUACGCCGUUCGGAUCUGCA	0.0509
GCAGGAAGUAAAAACAAAUGGAAAUGCUUCGGAUAGUGAAAGGGGUGGGGGUUGCUAAGGAAAGGGUGGGAUGGGAGUGGGUAAAGAGUU	0.286
UCAAGUCCUGUGCUACACAUCGUAUGUACCGAAUCGGGUGGGAAAGGGAAAGGGAAAGUAUUAUGUUACGCCGUUCGGAUCUGCACUUCC	0.886
GUCCUGUGCUACACAUCGUAUGUACCGAAUCGGGGAAAAAAAGGGGAGGGGAAAGGGGAAAGUAUUAUGUUACGCCGUUCGGAUCUGCAC	0.28
CUGUGCUACACAUCGUAUGUACCGAAUCGGCCCCCCCGGGCCCCCCCGGGCCCCCCCGGGGAAAGUAUUAUGUUACGCCGUUCGGAUCUG	-1.08
UCAUUAGAAGAUCUAAUUGAGAGAGAGGUAACUGGUAUCCUUUUCCUACCAUAAAAACUGAAAGCAGUAUUUAUUGUGAAAUUCUAAUAC	-0.101
CCUGUGCUACACAUCGUAUGUACCGAAUCGGGGCCCCCCGGGCCCCCCGGGCCCCCCGGGAAAGUAUUAUGUUACGCCGUUCGGAUCUGC	-0.723
AAGUCCUGUGCUACACAUCGUAUGUACCGAAUCGGGAAAAAAAGGGUUUGGGAGGGAAAGUAUUAUGUUACGCCGUUCGGAUCUGCACUU	0.725

Sample 2 — method: protein-binding microarray; form: double-stranded DNA, one strand shown; matrix: in vitro; concentration: 940 nM top; setting: 60-bp whole probe; together with: salmon DNA 0.4 mg/ml; relative to: random background probes; reading: higher = stronger binding; constant ends, left off below: GCCTAGCAC … GTCTTGATTCGCTTGACGCTGCTG
Target: Interferon regulatory factor 5, full length, phosphomimetic (IRF5, Homo sapiens, UniProt Q13568-2, residues 1-514, S451D/S453D/S456D/S462D)
Sequence	fitted relative affinity [z-score]
GACGGTTTCGACACTGGGGCCGTGCTA	7.24
CACGATATCAGTCTCGAGACGTGCTAG	1.44
GACTGTATCGACACTGGGGACGTGCTA	1.42
CACGGTATCGACTTTCGGGACGTGCTA	3.91
TTAGGACTCGGGACTGGGTTAGTGCTA	-0.593
CTAAAACTCTTTATTTAAGCGTGCTAG	0.162
TATCAGTTTAATATCTAAGAGTGCTAG	1.23
TTAGGTATCGGGTTTCGGTGAGTGCTA	7.38

Mixed results
P1: viral docking peptide; CKVKRKLFGSENI; partner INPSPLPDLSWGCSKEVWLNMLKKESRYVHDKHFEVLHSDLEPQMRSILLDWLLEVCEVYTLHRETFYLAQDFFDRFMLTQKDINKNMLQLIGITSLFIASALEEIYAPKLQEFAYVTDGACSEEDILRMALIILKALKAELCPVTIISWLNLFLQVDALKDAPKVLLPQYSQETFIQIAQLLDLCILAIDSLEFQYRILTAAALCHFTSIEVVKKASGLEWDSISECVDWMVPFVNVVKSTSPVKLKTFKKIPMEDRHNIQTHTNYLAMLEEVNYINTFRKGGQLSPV
Substance	target	test	system	setting	scale	measurement	value
PhoQ, residues 284 288 289 292 302 303 ALVSVA	PhoP, residues 12 14 15 18 19 STWGI (Escherichia coli, UniProt P23836)	Sort-seq, item: YFP reporter	E. coli	PhoQ-PhoP variant library, together with: 10 µM Mg2+	relative to: high Mg2+ state, higher = stronger signaling	fold induction	1.83
P1 R5A L7A	CCNE2, cyclin fold, Cln2 fusion (human)	yeast growth competition, sequencing	yeast	strong parent motif	relative to: not given, higher = stronger binding	normalised enrichment score	0.25

Some of these lines once more (sample 2):
Sequence	fitted relative affinity [z-score]
GACTGTATCGACACTGGGGACGTGCTA	1.42
